Measurements of several laboratories.
Each line is one published result; not all experiments were run side by side.
CDK2: Cyclin-dependent kinase 2 (CDK2, Homo sapiens, UniProt P24941)
CDK2 with cyclin A: Cyclin-dependent kinase 2, with cyclin A (CDK2, Homo sapiens, UniProt P24941)
CDK2 with cyclin E1: Cyclin-dependent kinase 2, with cyclin E1 (CDK2, Homo sapiens, UniProt P24941)

SMILES = Cc1nc(C)c(-c2ccnc(Nc3cccc(C#N)c3)n2)s1; target = CDK2; assay = average of ITC, Octet and Thermofluor; setting = untagged protein; measurement = Kd; result = 1.57 µM
SMILES = CC(=O)Nc1cc(-c2c(F)cccc2F)[nH]n1; target = CDK2 with cyclin A; assay = radiometric; setting = together with: 1 µM ATP; measurement = IC50; result = 3.4 µM
SMILES = Cc1cc(C)c(S(=O)(=O)N(CC(=O)O)c2ccc(Nc3ccnc(N4CCCC4)n3)cc2)c(C)c1; target = CDK2; assay = enzyme activity, inhibitor; measurement = IC50; result = > 100 µM
SMILES = O=C1Nc2c(Br)cccc2/C1=C1/Nc2ccccc2C1=NO; target = CDK2; measurement = IC50; result = > 10 µM
SMILES = O=c1cc(-c2ccc(O)cc2)oc2c1ccc1occc12; target = CDK2 with cyclin E1; assay = enzyme activity, inhibitor, ADP detection; measurement = IC50; result = > 20 µM
SMILES = O=C(Nc1cc(Cc2ccccc2)[nH]n1)C1CCC1; target = CDK2 with cyclin A; assay = radiometric; setting = together with: 1 µM ATP; measurement = IC50; result = 1.1 µM
SMILES = Cc1cc(-c2cc(=O)c3c(O)cc(O)c([C@H]4CCN(C)C[C@H]4O)c3o2)no1; target = CDK2 with cyclin A; assay = enzyme activity, inhibitor; measurement = IC50; result = 0.238 µM
SMILES = CCN(CC)CC(=O)Nc1cccc(-n2cc(-c3ccc4ccc(-c5cn(-c6cccc(NC(=O)CN(CC)CC)c6)nn5)cc4c3)nn2)c1; target = CDK2 with cyclin A; measurement = IC50; result = > 10 µM
SMILES = O=c1cc(-c2cccc(O)c2)oc2c1ccc1occc12; target = CDK2 with cyclin E1; assay = enzyme activity, inhibitor, ADP detection; measurement = IC50; result = > 20 µM
SMILES = CNC(=O)C1CCCN(C(=O)C2CC3CCC2N3C(=O)[C@@H]2C[C@@H](O)CN2C(=O)NCc2cccc(Cl)c2F)C1 (mixture of isomers); target = CDK2 with cyclin E1; assay = enzyme activity, inhibitor, mobility shift; measurement = IC50; result = 0.421 µM
SMILES = Cc1nn(-c2cccc(N)c2)c(=O)c2cnc(Nc3ccc(N4CCNCC4)cc3)nc12; target = CDK2 with cyclin A; assay = enzyme activity, inhibitor; measurement = IC50; result = > 10 µM
SMILES = O=C(Nc1cc(Cc2ccccc2)[nH]n1)c1ccccc1; target = CDK2 with cyclin A; assay = radiometric; setting = together with: 1 µM ATP; measurement = IC50; result = 3 µM

Some of these lines once more:
SMILES = O=C(Nc1cc(Cc2ccccc2)[nH]n1)C1CCC1; target = CDK2 with cyclin A; assay = radiometric; setting = together with: 1 µM ATP; measurement = IC50; result = 1.1 µM
